{"data": "Published values from different studies", "note": "A part holds a random share of what one study measured."}
{"data": "Series 1", "target": "Centromere-binding protein 1, full length, His-tagged (CBF1, Saccharomyces cerevisiae, UniProt P17106, residues 1-351)", "technique": "competition protein-binding microarray", "molecule type": "double-stranded DNA, one strand shown", "medium": "in vitro", "tested at": "2 µM", "notes": "whole 60-bp probe, lowest competitor level", "together with": "Pho4 competitor, 0.05 µM", "reading": "higher = stronger binding", "shared flanks, not repeated": "… GTCTTGATTCGCTTGACGCTGCTG", "chain of UniProt P17106 (whole entry, looked up)": "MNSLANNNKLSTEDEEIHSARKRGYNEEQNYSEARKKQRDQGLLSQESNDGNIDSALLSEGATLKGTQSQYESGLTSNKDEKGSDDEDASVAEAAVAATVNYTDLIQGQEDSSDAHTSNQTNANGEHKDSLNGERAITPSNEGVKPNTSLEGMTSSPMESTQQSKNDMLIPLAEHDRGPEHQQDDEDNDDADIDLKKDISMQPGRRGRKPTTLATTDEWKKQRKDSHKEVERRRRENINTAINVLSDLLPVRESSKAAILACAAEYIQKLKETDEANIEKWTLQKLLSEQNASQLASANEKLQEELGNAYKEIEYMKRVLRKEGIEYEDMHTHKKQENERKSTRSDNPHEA"}
{"Sequence": "TCCACACACCGTTCACACGTGCTTTATTTCTTTTTC", "fluorescence intensity": "1140 a.u."}
{"Sequence": "ATTTTCTTGGTCGACCACGTGCCGACCTTAAAGCAG", "fluorescence intensity": "2770 a.u."}
{"Sequence": "AATCTCCACTTTACCAATGTGACAGTCTAGACAAGC", "fluorescence intensity": "88.1 a.u."}
{"Sequence": "AACGCCATGGCCTGTCACCTGATGCATTTATTCAAC", "fluorescence intensity": "1060 a.u."}
{"Sequence": "CTTTCCCGATCTTGAATTGTGGGTGTAGCACATTTG", "fluorescence intensity": "92 a.u."}
{"Sequence": "ACTGTTGAAAAAAAGCACGCTGCAGTTGCATCAGGG", "fluorescence intensity": "79.5 a.u."}
{"Sequence": "TTCAATGCCAACAATAGCGTGCTTTCTTGTGAGTTT", "fluorescence intensity": "75.3 a.u."}
{"Sequence": "CTTCTGTAAATTTGAGCCGTGGGTGGACGCGCCCCG", "fluorescence intensity": "79.9 a.u."}
{"Sequence": "CATACCCAACCTTGCCTCGTGGGTGAAGATATTTGT", "fluorescence intensity": "99.7 a.u."}
{"Sequence": "GTATTGGATAGCCATCACGTTGTCGAACATCCGGCT", "fluorescence intensity": "379 a.u."}
{"Sequence": "GAAAGCGTTCAGTCCCACGTTGAAAAAAATATATAA", "fluorescence intensity": "87.2 a.u."}
{"Sequence": "TCTTCTAGGAATTAGCACGTGTTTTGGTAACGCACC", "fluorescence intensity": "3250 a.u."}
{"data": "Series 2", "target": "Sal-like protein 4, full length isoform A (SALL4, Homo sapiens, UniProt Q9UJQ4, residues 1-1053)", "technique": "universal PBM", "molecule type": "double-stranded DNA, one strand shown", "medium": "in vitro", "tested at": "600 nM", "notes": "8-mer, flanks averaged, mean of replicates", "reading": "higher = stronger binding", "chain of UniProt Q9UJQ4 (whole entry, looked up)": "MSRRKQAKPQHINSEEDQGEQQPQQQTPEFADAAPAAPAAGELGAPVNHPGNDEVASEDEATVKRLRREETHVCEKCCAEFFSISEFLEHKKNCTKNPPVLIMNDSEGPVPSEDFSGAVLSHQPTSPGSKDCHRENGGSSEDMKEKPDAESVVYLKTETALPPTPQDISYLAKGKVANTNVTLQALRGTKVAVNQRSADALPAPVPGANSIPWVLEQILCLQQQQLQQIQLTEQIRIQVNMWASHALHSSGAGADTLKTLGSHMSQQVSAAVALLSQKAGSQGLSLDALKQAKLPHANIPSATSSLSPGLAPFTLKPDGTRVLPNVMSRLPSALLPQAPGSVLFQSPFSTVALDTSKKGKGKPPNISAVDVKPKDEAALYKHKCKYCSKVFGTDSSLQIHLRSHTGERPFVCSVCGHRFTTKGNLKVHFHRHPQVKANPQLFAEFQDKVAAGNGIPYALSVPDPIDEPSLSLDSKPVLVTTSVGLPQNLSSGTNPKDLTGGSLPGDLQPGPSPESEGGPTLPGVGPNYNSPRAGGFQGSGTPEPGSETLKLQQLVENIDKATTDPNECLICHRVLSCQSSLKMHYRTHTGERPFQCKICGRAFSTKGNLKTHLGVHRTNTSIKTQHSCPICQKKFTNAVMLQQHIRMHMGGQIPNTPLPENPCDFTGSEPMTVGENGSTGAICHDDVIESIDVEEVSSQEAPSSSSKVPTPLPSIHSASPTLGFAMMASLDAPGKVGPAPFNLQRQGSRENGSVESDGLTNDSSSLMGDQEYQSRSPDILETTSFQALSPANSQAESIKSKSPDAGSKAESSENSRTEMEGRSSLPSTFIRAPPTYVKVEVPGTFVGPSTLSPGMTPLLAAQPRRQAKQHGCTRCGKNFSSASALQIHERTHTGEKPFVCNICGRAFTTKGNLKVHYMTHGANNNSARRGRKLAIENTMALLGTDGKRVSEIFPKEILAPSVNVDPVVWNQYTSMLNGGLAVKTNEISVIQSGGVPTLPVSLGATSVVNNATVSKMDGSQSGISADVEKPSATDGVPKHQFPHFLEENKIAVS"}
{"Sequence": "CCCACACA", "E-score": -0.171}
{"Sequence": "ATCACTGA", "E-score": 0.121}
{"Sequence": "ACTATCAG", "E-score": 0.0273}
{"Sequence": "AGCCGTTA", "E-score": 0.0157}
{"Sequence": "ACCCCGGG", "E-score": -0.374}
{"Sequence": "CCAAAGAA", "E-score": 0.122}
{"Sequence": "AAATGTGA", "E-score": 0.247}
{"Sequence": "CAAAAATA", "E-score": 0.371}
{"Sequence": "ATAGATTA", "E-score": 0.349}
{"Sequence": "GAGGTCAA", "E-score": -0.0715}
{"Sequence": "CCTTCTCA", "E-score": -0.00535}
{"data": "Series 3", "target": "Transcriptional repressor CTCF (CTCF, Homo sapiens, UniProt P49711, residues 1-727, full length assumed)", "technique": "protein-binding microarray", "molecule type": "double-stranded DNA, one strand shown", "medium": "in vitro", "tested at": "not given", "notes": "k-mer, scored over probes, only values ≥0.25", "reading": "higher = stronger binding", "chain of UniProt P49711 (whole entry, looked up)": "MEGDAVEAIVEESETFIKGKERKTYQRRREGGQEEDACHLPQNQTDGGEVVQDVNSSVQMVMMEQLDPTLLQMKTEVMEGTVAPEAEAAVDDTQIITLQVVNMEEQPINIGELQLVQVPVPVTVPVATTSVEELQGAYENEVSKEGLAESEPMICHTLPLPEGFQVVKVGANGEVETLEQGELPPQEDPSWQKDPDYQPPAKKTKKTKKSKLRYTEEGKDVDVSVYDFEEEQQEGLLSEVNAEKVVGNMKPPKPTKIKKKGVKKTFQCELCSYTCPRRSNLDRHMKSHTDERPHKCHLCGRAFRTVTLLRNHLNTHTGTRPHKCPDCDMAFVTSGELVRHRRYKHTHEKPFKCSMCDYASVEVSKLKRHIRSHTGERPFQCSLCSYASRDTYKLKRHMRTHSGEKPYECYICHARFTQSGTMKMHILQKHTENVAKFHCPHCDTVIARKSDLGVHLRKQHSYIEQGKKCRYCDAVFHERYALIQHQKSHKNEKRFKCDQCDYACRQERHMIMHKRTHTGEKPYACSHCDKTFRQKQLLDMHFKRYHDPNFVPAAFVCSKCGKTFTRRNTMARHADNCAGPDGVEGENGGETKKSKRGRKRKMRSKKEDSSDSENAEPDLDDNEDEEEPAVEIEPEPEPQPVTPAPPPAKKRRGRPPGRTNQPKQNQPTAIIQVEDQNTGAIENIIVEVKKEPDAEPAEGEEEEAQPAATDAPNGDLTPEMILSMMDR"}
{"Sequence": "ATCCTATA", "E-score": 0.304}
{"Sequence": "ACGATTAT", "E-score": 0.317}
{"Sequence": "TATAACGA", "E-score": 0.302}
{"Sequence": "CATTATTA", "E-score": 0.353}
{"Sequence": "AAAAGTAT", "E-score": 0.293}
{"Sequence": "AGCGCCAC", "E-score": 0.449}
{"Sequence": "CTAAATAA", "E-score": 0.289}
{"Sequence": "GCGCGCCA", "E-score": 0.278}
{"Sequence": "AGTAGGGG", "E-score": 0.333}
{"data": "Other studies, line by line"}
{"Substance": "PhoQ, residues 284 288 289 292 302 303 ASASEQ", "target": "PhoP, residues 12 14 15 18 19 AYFRS (Escherichia coli, UniProt P23836)", "test": "Sort-seq, item: YFP reporter", "test system": "E. coli", "setting": "PhoQ-PhoP variant library, together with: 10 µM Mg2+", "scale": "baseline: high Mg2+ state, higher = stronger signaling", "measurement": "fold induction", "value": 7.55}
{"note": "For quick reference, copied from above (series 3):"}
{"Sequence": "ATCCTATA", "E-score": 0.304}
{"Sequence": "ACGATTAT", "E-score": 0.317}
{"Sequence": "TATAACGA", "E-score": 0.302}
